Assay results pooled from the literature.
Protocols differ between the studies behind these lines. “And” joins repeats or separate records; there may be more than shown. ± marks the error that the study gave.
Ahr: Aryl hydrocarbon receptor (Ahr, Rattus norvegicus, UniProt P41738)

COc1ccc(-c2ccc(CNC3(C(=O)NO)CCS(=O)(=O)CC3)cc2)c(F)c1 — residence time (UDP-3-O-acyl-N-acetylglucosamine deacetylase (Pseudomonas aeruginosa, UniProt P47205); fluorescence; 37 °C): ~30 min and 32 min
c1cc2ccc3cccc4ccc(c1)c2c34 — specificity ratio (Ahr; reporter gene, activator; baseline: baseline cytotoxicity over effect concentration): 2.11
C[C@H]1CN(c2n[nH]c3nc(N[C@H]4CC[C@H](NS(=O)(=O)CCC(F)(F)F)CC4)ncc23)CCO1 — relative abundance (WNK1 (Homo sapiens, UniProt Q9H4A3); inhibitor, Kinobeads competition profiling; 0.16 µM; baseline: vehicle): 1.19
C[C@H]1COCCN1c1nc(NCc2cccnc2C(F)(F)F)c2cccnc2n1 — IC50 (CHRNA1/CHRNG/CHRND (Homo sapiens, UniProt P02708+P07510+Q07001); binding; CEREP panel): > 100 µM
C[C@]12CC[C@H]3[C@@H](CCC4=CC(=O)CC[C@@]43C)[C@@H]1CC[C@@H]2C(=O)CO — aldosterone formation rate (CYP11B2 (Homo sapiens, UniProt P19099); substrate; steady state): 6.3 pmol/min/pmol P450
O=C(O)COP(=O)(O)O — Ki ratio (TPI1 (Saccharomyces cerevisiae, UniProt P00942, S211A); enzyme activity, competitive inhibitor, GPDH/NADH-coupled; pH 6.4, 25 °C, ionic strength 0.1 NaCl, with: glyceraldehyde 3-phosphate substrate; baseline: mutant over wild type): 126
O=C(Nc1cnccc1Cl)N1CCN(Cc2ccc3c(c2)OC(F)(F)O3)CC1 — inhibition (ryanodine receptor RyR3, rat; binding; 10 µM, with: [3H]ryanodine): 7%
COc1ccc(N2C(=O)N(c3c(C)cccc3Cl)Cc3cnc(Nc4ccc(C5CCN(C)CC5)cc4OC)nc32)nc1 — inhibition (SRPK1 (Homo sapiens, UniProt Q96SB4); kinase activity; 0.5 µM): 1.56%
Nc1ncc(-c2nc(N3CCOCC3)nc(N3CCOCC3)n2)c(C(F)F)n1 — remaining binding (NEK3 (Homo sapiens, UniProt P51956); KINOMEscan; 10 µM): 78%
O=P(O)(O)OC[C@H]1C[C@](O)(CO)[C@@H](O)[C@H](O)[C@@H]1O — apparent Vmax (2-epi-valiolone synthase (Actinosynnema mirum, UniProt C6WFL3); phosphate release; 10 µM): 2.1 ± 0.2 µM/min
C[C@@H](O)[C@H](NC(=O)[C@H](Cc1ccccc1)NC(=O)[C@H](Cc1ccccc1)NC(=O)[C@H](CC(=O)O)NC(=O)[C@H](CC(=O)O)NC(=O)[C@H](Cc1c[nH]c2ccccc12)NC(=O)[C@H](CO)NC(=O)[C@@H](N)CCCCN)C(=O)N[C@@H](CCCNC(=N)N)C(=O)O — kon (Epithelial sodium channel subunit gamma (Homo sapiens, UniProt P51170); binding, bio-layer interferometry): 30000 M⁻¹ s⁻¹
Clc1cc2c(cc1Cl)Oc1cc(Cl)c(Cl)cc1O2 — EC20 (Uncharacterized protein (Takifugu rubripes, UniProt Q4JHL6); reporter gene, agonist, dual-luciferase; COS-7; 24 h): 0.08 ± 0.02 nM
COc1cc(N)c(Cl)cc1C(=O)NC1CN2CCC1CC2 (stereo not drawn) — log2 fold change (HCAR2 (Homo sapiens, UniProt Q8TDS4); β-arrestin recruitment, TANGO luminescence, refers to: GPR109A; concentration not given; baseline: basal luminescence): -0.014
COc1cc(Nc2ncc(F)c(Nc3ccc4c(n3)NC(=O)C(C)(C)O4)n2)cc(OC)c1OC — inhibition (SRPK2 (Homo sapiens, UniProt P78362); KINOMEscan; 10 µM): 0%
OB(O)CSc1nc2ccccc2n1Cc1ccc(C(F)(F)F)cc1C(F)(F)F — kon (Regulatory protein BlaR1, sensor domain (blaR1, Staphylococcus aureus, UniProt P18357)): 5800 ± 1.2e+06 M⁻¹ s⁻¹
CO[P@](=O)(Oc1ccccc1)OC1CCCCC1 — Km (had (Sphingobium sp. TCM1, UniProt A0A077JBW9)): 370 ± 50 µM
CC[C@@H](C)[C@@H](NC(=O)[C@@H](Cc1ccc(O)cc1)NC(=O)[C@H]1CCCN1C(=O)[C@@H](CCCNC(=N)N)NC(=O)[C@H](N)Cc1c[nH]cn1)C(=O)N[C@H](C)C(=O)N[C@H](Cc1c[nH]cn1)C(=O)N[C@H](CCCNC(=N)N)C(=O)N[C@H](CCCCNC(=O)c1cccc(S(=O)(=O)F)c1)C(=O)N[C@H](Cc1ccc(O)cc1)C(=O)N[C@H](CO)C(=O)N[C@H](Cc1ccccc1)C(N)=O — surface TFRC expression (Transferrin receptor protein 1 (Tfrc, Mus musculus, UniProt Q62351); flow cytometry; RAW264.7; 48 h, pH 7.4, unit not given; baseline: 0 h): 0.943
[2H]c1c([2H])c([C@]2([2H])CCCN2C(=O)C(C)(C)Oc2ccc3cn[nH]c3c2)c([2H])c([2H])c1C([2H])([2H])[2H] — remaining binding (PIK3C2G (Homo sapiens, UniProt O75747); KINOMEscan; 1 µM; baseline: DMSO control): 98%
CN(N=O)c1ccc(O)c(O)c1 — remaining activity (DCLRE1A (Homo sapiens, UniProt Q6PJP8); exonuclease activity, inhibitor, fluorescence HTS; 10 µM, 80 min, with: 8 nM 5P-FQ substrate; baseline: high and low controls): 45%
O=C(c1ccc(Cl)cc1)N1CCN2C(=O)N(OC(=O)N3CCOc4ccccc43)C(=O)C2C1 (stereo not drawn) — median ratio (Probable serine carboxypeptidase CPVL (CPVL, Homo sapiens, UniProt Q9H3G5); enzyme activity, inhibitor, MS-based ABPP; SW-620 in situ; 10 µM, 2 h, 37 °C; baseline: compound over DMSO, lower = stronger inhibition): 1.09
c1ccc2c(c1)cc1ccc3cccc4ccc2c1c34 — agonist response (Ahr; agonist, CALUX reporter; H4IIE; 0.038 µg/mL): 87.4%
CN(C(=O)n1cnc(-c2ccc[n+]([O-])c2)c1)C1CCCCC1 — inhibition (GABBR1 (Homo sapiens, UniProt Q9UBS5); radioligand binding; 50 µM, with: [3H]CGP-54626): 7%
COC(=O)[C@@]1(O)C[C@H]2O[C@]1(C)n1c3ccccc3c3c4c(c5c6ccccc6n2c5c31)C(=O)NC4 — kinase activity (MAPK3 (Homo sapiens, UniProt P27361); ADP-Glo; 4.15 µM, with: MBP substrate): 102% and 118% and 103%
O=C(O)c1cc[c]([Hg][Cl])cc1 — maximum inhibition (blaNDM-1 (Klebsiella pneumoniae, UniProt C7C422); inhibitor): < 100%
CN1CCN(c2cc(-c3ccncc3)c(-c3ccc4ccccc4c3)nn2)CC1 — inhibition (FFAR3 (Homo sapiens, UniProt O14843); antagonist, FLIPR; 10 µM): 32.1%
Nc1ccncc1 — IC30 (Voltage-dependent P/Q-type calcium channel subunit alpha-1A (Homo sapiens, UniProt O00555); ion current, antagonist, automated patch clamp): > 30 µM
O=C(Nc1cccnn1)N1CCC(=Cc2cccc(Oc3ccc(C(F)(F)F)cn3)c2)CC1 — inhibition (MAOA (Homo sapiens, UniProt P21397); enzyme activity, inhibitor; 50 µM, human, with: kynuramine substrate): 47%
Cc1nn(C)cc1-c1nc2c(N3CCN(Cc4ccc(Cl)cc4)CC3)c(Cl)cnc2[nH]1 — remaining binding (BMP2K (Homo sapiens, UniProt Q9NSY1); KINOMEscan; 1 µM; baseline: DMSO control): 6.7%
CC[C@H](C)[C@H](NC(=O)CNC(=O)[C@@H](N)CCCCN)C(=O)N[C@@H](CC(C)C)C(=O)N[C@@H](CCCCN)C(=O)N[C@@H](CC(N)=O)C(=O)N[C@@H](CCCNC(=N)N)C(=O)N[C@@H](C)C(=O)N[C@@H](CCCNC(=N)N)C(=O)N[C@@H](CCCNC(=N)N)C(=O)N[C@@H](CCC(=O)O)C(=O)N[C@@H](CCCNC(=N)N)C(=O)N1CCC[C@H]1C(=O)NCC(=O)N[C@@H](CCCCN)C(=O)N[C@@H](CCCNC(=N)N)C(=O)N[C@@H](CCCCN)C(=O)N[C@H](C(=O)N[C@H](C(=O)N[C@H](C(=O)N[C@@H](Cc1c[nH]c2ccccc12)C(=O)N1CCC[C@H]1C(=O)N[C@@H](CCC(=O)O)C(=O)N[C@@H](CCC(=O)O)C(=O)NCC(=O)N[C@@H](CCCCN)C(=O)N[C@@H](CC(C)C)C(=O)N[C@@H](CCCNC(=N)N)C(=O)N[C@@H](CCC(=O)O)C(=O)N[C@@H](Cc1ccc(O)cc1)C(=O)N[C@@H](Cc1ccccc1)C(=O)N[C@@H](Cc1ccc(O)cc1)C(=O)N[C@@H](Cc1ccccc1)C(=O)N[C@@H](CCC(=O)O)C(=O)N[C@@H](CC(C)C)C(=O)N[C@@H](CC(=O)O)C(=O)N[C@@H](CCC(=O)O)C(=O)N[C@H](C(=O)N[C@@H](CCC(=O)O)C(=O)N[C@@H](CCCNC(=N)N)C(=O)N[C@H](C(=O)N[C@@H](CC(N)=O)C(=O)N[C@H](C(=O)O)C(C)C)C(C)C)[C@@H](C)O)[C@@H](C)O)C(C)C)[C@@H](C)O — entropy change ΔS (PPP1CA (Homo sapiens, UniProt P62136); binding, isothermal titration calorimetry; concentration not given, 25 °C, PP1α residues 7-330): -68 ± 4.6 cal/mol/K
CC(=O)C(c1ccccc1)c1ccccc1 — activity (Nuclear receptor subfamily 1 group I member 3 (Homo sapiens, UniProt Q14994); concentration not given): inactive
CNC(=O)Oc1ccccc1OC(C)C — remaining activity (uncharacterized protein (Anopheles coluzzii, UniProt A0A6E8VQK1); enzyme activity, inhibitor; Sf9 cell homogenate; 0.04651 µM, 0.1667 h, with: α-naphthyl acetate substrate; baseline: no inhibitor): 95.9%
C[C@@H](O)[C@H](NC(=O)c1ccc(-c2ccccc2)cc1)C(=O)NO — ΔS of binding (UDP-3-O-acyl-N-acetylglucosamine deacetylase (Pseudomonas aeruginosa, UniProt P47205, C40S); ITC; concentration not given, 298 K): 0.0607 kJ/(mol·K)
O=C(O)CCC(=O)C(=O)O — Km (HIF1AN (Homo sapiens, UniProt Q9NWT6, Y93A); cosubstrate; pH 7.00, 37.0 °C, mutant Y93A, with: CTAD peptide 100 µM, cosubstrate 217 µM): 13 ± 5 µM

Repeated from above:
O=C(Nc1cccnn1)N1CCC(=Cc2cccc(Oc3ccc(C(F)(F)F)cn3)c2)CC1 — inhibition (MAOA (Homo sapiens, UniProt P21397); enzyme activity, inhibitor; 50 µM, human, with: kynuramine substrate): 47%
Cc1nn(C)cc1-c1nc2c(N3CCN(Cc4ccc(Cl)cc4)CC3)c(Cl)cnc2[nH]1 — remaining binding (BMP2K (Homo sapiens, UniProt Q9NSY1); KINOMEscan; 1 µM; baseline: DMSO control): 6.7%
CC[C@H](C)[C@H](NC(=O)CNC(=O)[C@@H](N)CCCCN)C(=O)N[C@@H](CC(C)C)C(=O)N[C@@H](CCCCN)C(=O)N[C@@H](CC(N)=O)C(=O)N[C@@H](CCCNC(=N)N)C(=O)N[C@@H](C)C(=O)N[C@@H](CCCNC(=N)N)C(=O)N[C@@H](CCCNC(=N)N)C(=O)N[C@@H](CCC(=O)O)C(=O)N[C@@H](CCCNC(=N)N)C(=O)N1CCC[C@H]1C(=O)NCC(=O)N[C@@H](CCCCN)C(=O)N[C@@H](CCCNC(=N)N)C(=O)N[C@@H](CCCCN)C(=O)N[C@H](C(=O)N[C@H](C(=O)N[C@H](C(=O)N[C@@H](Cc1c[nH]c2ccccc12)C(=O)N1CCC[C@H]1C(=O)N[C@@H](CCC(=O)O)C(=O)N[C@@H](CCC(=O)O)C(=O)NCC(=O)N[C@@H](CCCCN)C(=O)N[C@@H](CC(C)C)C(=O)N[C@@H](CCCNC(=N)N)C(=O)N[C@@H](CCC(=O)O)C(=O)N[C@@H](Cc1ccc(O)cc1)C(=O)N[C@@H](Cc1ccccc1)C(=O)N[C@@H](Cc1ccc(O)cc1)C(=O)N[C@@H](Cc1ccccc1)C(=O)N[C@@H](CCC(=O)O)C(=O)N[C@@H](CC(C)C)C(=O)N[C@@H](CC(=O)O)C(=O)N[C@@H](CCC(=O)O)C(=O)N[C@H](C(=O)N[C@@H](CCC(=O)O)C(=O)N[C@@H](CCCNC(=N)N)C(=O)N[C@H](C(=O)N[C@@H](CC(N)=O)C(=O)N[C@H](C(=O)O)C(C)C)C(C)C)[C@@H](C)O)[C@@H](C)O)C(C)C)[C@@H](C)O — entropy change ΔS (PPP1CA (Homo sapiens, UniProt P62136); binding, isothermal titration calorimetry; concentration not given, 25 °C, PP1α residues 7-330): -68 ± 4.6 cal/mol/K
